Measured values from different studies.
Every numbered part comes from another study and shows a few of its results, in no order.

Series 1
Target: Hepatocyte nuclear factor 3-beta, forkhead domain (FOXA2, Homo sapiens, UniProt Q9Y261, residues 142-269)
Technique: protein-binding microarray
Molecule type: double-stranded DNA, one strand shown
Matrix: in vitro
Tested at: not given
Notes: k-mer, scored over probes, only values ≥0.25
Reading: higher = stronger binding
Residues (chain): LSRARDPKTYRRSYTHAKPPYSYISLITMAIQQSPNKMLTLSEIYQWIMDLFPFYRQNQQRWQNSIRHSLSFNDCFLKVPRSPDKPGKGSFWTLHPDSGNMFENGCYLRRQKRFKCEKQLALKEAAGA
| Sequence | E-score |
| --- | --- |
| CTAACGTA | 0.303 |
| GATCATAA | 0.317 |
| GTTTGATA | 0.266 |
| ATATTGAT | 0.353 |
| ATAGTATG | 0.296 |
| ATGTTATG | 0.315 |
| GTAACATA | 0.306 |
| TTACACAA | 0.284 |
| AAGATACA | 0.332 |
| ATATTCTG | 0.268 |
| TATACATA | 0.375 |
| ACAAACAC | 0.391 |
| ATGCCATA | 0.312 |
| ACACTGAA | 0.277 |
| ACACCATA | 0.267 |
| GTATAATA | 0.335 |

Series 2
Target: Interferon regulatory factor 7, full length, phosphomimetic (IRF7, Homo sapiens, UniProt Q92985, residues 1-503, S101K/S471D/S472D/S475D/S476D/S477D/S483D/S484D/S487D)
Technique: protein-binding microarray
Molecule type: double-stranded DNA, one strand shown
Matrix: in vitro
Tested at: 250 nM
Notes: 60-bp whole probe
Added: salmon DNA 0.4 mg/ml
Baseline: random background probes
Reading: higher = stronger binding
All sequences stand within: GCCTAGCAC … GTCTTGATTCGCTTGACGCTGCTG
Target sequence (chain): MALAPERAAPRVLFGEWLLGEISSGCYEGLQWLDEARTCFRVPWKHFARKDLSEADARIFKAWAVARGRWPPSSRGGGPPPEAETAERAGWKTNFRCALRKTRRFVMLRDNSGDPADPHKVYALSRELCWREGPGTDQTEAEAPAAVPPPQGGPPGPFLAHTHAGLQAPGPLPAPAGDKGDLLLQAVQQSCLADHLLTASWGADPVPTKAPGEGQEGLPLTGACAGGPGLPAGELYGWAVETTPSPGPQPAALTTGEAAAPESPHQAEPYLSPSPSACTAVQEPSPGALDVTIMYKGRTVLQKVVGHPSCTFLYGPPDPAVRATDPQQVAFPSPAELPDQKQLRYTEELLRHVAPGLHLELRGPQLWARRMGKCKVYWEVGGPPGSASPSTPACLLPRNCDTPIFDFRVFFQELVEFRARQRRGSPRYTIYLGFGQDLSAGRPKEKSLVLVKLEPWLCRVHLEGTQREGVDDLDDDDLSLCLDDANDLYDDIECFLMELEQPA
| Sequence | log fluorescence [z-score] |
| --- | --- |
| GTCGGTTCCCTTTTCCTGACGTGCTAG | 4.21 |
| GACGATTTCAGTTCCGAGCCGTGCTAG | 0.398 |
| GACGAATTACCTCTGGAGCAGTGCTAG | -0.403 |
| GACGGTATCGGACTGGGGGCGTGCTAG | 0.325 |
| GACGGATTGGGGTATCGGGACGTGCTA | -0.461 |
| TTAGATTTTAGTCTCGATTAGTGCTAG | 2.48 |
| GACGATATCGGGAATCGAGACGTGCTA | 0.32 |
| GACGATTTCAGTTCCTAGACGTGCTAG | 0.847 |
| GACGATTTGAGTTTCGAGACGTGCTAG | 3.08 |
| TCCTCTTTCACTGCTCCATACGTGCTA | 1.42 |
| TCAGATATCGGGACTGGATTAGTGCTA | -0.0815 |

Series 3
Target: RNA binding protein fox-1 homolog 2, RRM domain, GST-SBP tag (RBFOX2, Homo sapiens, UniProt O43251-10, residues 100-194)
Technique: RNA Bind-n-Seq
Molecule type: RNA
Matrix: in vitro
Tested at: 365 nM
Notes: natural RNA segment, single round, ends assumed
Baseline: no-protein control
Reading: higher = stronger binding
All sequences stand within: GGGAGUUCUACAGUCCGACGAUC … UGGAAUUCUCGGGUGCCAA
Construct (chain): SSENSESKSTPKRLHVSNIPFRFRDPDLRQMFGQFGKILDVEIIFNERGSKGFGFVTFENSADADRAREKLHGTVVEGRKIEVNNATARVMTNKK
| Sequence | RBNS enrichment (R) |
| --- | --- |
| CCCUAGACUAAGUUAAAUAUUUCUGCACAGUGUUCCCAUGGCCCCUUGCAUUUCCUUCUUAACUCUCUGUUACACGUCAUUGAAACUACACUUUUUUGGUCUGUUUUUGU | 0.94 |
| AAUCAUAUUGGGAAAGUGCUAGCUGUGCUCACCUUCAUGGGGCUGUUUCCAGCUCGUCCACAAGCUCAUCGAUUUUCUUUAGUAGAUUACCGGUGUAAAUACCCAGUGUG | 0.213 |
| AUGGGAGACCCUUGACACCUGCUGAGAAAACAUGCCUCUGCCAAAGGAUGUGAUAUAUAAGUGUACAUAUGUGCUGUACACCUGGGACCUUCACCACUGUAGAUCCCAUG | 0.76 |
| CAUGCCCUUUGGACCCAGUUCCCACCGAGGCCCCAGCAGAGUGGAGGGCACAACACUUUCAUUCAGCAAAAUCGUUUGUGUUCCAGUCACACUGUGGGCACCUCUUGCAU | 0.72 |
| CACACUGUCUCCUGCUGGCAUUCACCCCACUCAUGCUGGAAAGGAAGAUCCAGAUCGUACAAAAAUUAGAAAAAGAAAGAAUAAGAAGGGUCUGGUCCCAGUUCUGACUC | 0.902 |
| UUGUGUCUUCAUUUUAAUGUGUUUGCAAUCGCUCCGCUCCAGGAAGAACGGAAAUGCUGUCUUGUGAGCAUGAAGUGAACGGGCUGUUUUGCUCCAGCCACUUUUCUUGU | 0.513 |
| AACUCCAUGUGUGUGUGUUAAGUGUUUGACUCCAAUUAAGACUCCCAAGCAAAUCCUGCAUAUUCCAAAUGUAAAGAGUACUCAGUGGGAAAAAGGUUGUUACCUCAAAG | 1.21 |
| AGGCACACCCACGCUGGGACAGGGACUUCUAACCGACUGGCCUGCUGCUAAUGCAGGACAGUCUACUUUUCAGUUAAUUCAGAGCCCUUAGCUUGUGUUAUCAAAUGUUC | 0.5 |

Other studies, line by line
| Molecule | target | test | system | conditions | scale | quantity | value |
| --- | --- | --- | --- | --- | --- | --- | --- |
| PhoQ, residues 284 288 289 292 302 303 SCEHLI | PhoP, residues 12 14 15 18 19 TQCLL (Escherichia coli, UniProt P23836) | Sort-seq, measured: YFP reporter | E. coli | PhoQ-PhoP variant library, added: 10 µM Mg2+ | baseline: high Mg2+ state, higher = stronger signaling | fold induction | 5.45 |

Repeated from above (series 2):
| Sequence | log fluorescence [z-score] |
| --- | --- |
| GACGGATTGGGGTATCGGGACGTGCTA | -0.461 |
| GACGATTTGAGTTTCGAGACGTGCTAG | 3.08 |
| TCCTCTTTCACTGCTCCATACGTGCTA | 1.42 |
